Measured values gathered from unrelated publications.
Parts stem from different laboratories: compare values within a part only.
Sequence of UniProt Q2M2I8 (whole entry, looked up): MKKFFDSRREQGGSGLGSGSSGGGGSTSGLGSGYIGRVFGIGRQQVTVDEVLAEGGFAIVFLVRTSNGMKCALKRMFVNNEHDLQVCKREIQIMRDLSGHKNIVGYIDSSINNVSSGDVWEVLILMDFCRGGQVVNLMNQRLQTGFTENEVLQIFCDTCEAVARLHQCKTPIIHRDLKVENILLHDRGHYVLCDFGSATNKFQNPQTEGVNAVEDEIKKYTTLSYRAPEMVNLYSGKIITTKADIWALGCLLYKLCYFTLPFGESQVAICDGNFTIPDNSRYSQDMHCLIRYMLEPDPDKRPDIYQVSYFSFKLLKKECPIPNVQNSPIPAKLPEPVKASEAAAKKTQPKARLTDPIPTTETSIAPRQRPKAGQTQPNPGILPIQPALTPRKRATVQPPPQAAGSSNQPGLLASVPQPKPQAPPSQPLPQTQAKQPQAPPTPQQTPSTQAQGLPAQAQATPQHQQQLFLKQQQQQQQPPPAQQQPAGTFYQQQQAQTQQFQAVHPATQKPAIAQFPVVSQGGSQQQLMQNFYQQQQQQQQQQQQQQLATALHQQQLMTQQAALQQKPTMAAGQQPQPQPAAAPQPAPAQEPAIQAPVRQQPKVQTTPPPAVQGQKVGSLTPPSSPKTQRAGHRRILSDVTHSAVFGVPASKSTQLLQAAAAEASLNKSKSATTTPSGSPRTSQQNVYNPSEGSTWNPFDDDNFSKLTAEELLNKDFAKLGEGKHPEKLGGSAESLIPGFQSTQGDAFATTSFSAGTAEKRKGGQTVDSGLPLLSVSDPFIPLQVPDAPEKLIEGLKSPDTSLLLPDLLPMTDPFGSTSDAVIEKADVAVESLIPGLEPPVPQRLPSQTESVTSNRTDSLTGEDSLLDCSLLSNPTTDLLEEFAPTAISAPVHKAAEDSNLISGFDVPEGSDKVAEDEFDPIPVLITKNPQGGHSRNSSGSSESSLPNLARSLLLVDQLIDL
Sequence of UniProt P54764 (whole entry, looked up): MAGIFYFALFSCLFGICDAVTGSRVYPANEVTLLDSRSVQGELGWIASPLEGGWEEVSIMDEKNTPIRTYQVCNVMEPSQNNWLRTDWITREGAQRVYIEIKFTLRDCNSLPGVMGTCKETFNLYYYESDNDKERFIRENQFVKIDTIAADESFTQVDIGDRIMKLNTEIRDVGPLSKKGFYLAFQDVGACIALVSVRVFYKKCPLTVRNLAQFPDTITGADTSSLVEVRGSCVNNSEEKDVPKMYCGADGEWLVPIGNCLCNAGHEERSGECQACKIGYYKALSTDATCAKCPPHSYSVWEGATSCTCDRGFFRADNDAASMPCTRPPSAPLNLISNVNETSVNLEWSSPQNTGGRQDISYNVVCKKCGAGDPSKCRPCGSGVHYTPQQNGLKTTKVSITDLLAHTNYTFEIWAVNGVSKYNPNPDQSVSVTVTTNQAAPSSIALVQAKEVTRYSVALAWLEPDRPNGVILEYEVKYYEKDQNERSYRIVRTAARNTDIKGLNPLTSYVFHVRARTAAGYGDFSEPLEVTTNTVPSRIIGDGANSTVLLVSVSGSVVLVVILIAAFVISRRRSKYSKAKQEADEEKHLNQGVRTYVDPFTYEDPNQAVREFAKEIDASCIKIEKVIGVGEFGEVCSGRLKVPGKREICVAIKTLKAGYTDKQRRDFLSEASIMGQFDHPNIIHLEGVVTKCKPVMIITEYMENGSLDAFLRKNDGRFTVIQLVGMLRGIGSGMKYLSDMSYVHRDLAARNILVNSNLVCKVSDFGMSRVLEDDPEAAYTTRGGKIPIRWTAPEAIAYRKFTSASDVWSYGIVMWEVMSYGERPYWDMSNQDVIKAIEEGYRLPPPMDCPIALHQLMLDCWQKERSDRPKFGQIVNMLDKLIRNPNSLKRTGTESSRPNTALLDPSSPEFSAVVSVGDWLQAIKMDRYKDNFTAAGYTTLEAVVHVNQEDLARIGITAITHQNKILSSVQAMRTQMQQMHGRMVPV
Sequence of UniProt P42336 (whole entry, unmodified, looked up): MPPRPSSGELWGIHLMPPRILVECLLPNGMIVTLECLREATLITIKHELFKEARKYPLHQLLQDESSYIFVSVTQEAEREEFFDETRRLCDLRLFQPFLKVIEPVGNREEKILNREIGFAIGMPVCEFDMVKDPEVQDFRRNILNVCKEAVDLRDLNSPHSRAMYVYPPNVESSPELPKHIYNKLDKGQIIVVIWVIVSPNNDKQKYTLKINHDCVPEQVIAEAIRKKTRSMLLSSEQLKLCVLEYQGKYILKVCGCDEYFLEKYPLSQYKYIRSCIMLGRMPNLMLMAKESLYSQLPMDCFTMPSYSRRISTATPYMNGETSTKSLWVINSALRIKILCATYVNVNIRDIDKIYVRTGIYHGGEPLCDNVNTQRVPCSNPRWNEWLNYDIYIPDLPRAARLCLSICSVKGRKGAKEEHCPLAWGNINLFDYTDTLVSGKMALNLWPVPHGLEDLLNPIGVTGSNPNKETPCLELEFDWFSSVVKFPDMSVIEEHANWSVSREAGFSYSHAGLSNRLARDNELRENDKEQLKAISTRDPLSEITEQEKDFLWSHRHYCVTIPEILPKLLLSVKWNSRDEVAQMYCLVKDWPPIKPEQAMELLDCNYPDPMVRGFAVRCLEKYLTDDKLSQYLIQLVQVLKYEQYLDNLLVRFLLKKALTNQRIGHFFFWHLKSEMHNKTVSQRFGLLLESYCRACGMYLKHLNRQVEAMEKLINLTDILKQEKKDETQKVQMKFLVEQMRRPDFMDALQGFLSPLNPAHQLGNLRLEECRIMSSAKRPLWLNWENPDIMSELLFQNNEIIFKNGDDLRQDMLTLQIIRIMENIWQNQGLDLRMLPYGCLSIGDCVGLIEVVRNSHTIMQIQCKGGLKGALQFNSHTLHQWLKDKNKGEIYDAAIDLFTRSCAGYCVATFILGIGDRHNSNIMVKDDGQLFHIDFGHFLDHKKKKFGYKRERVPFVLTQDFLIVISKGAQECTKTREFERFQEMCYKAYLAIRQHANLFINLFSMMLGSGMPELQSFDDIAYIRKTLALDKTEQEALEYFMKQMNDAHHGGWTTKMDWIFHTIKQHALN
Sequence of UniProt Q13873 (whole entry, looked up): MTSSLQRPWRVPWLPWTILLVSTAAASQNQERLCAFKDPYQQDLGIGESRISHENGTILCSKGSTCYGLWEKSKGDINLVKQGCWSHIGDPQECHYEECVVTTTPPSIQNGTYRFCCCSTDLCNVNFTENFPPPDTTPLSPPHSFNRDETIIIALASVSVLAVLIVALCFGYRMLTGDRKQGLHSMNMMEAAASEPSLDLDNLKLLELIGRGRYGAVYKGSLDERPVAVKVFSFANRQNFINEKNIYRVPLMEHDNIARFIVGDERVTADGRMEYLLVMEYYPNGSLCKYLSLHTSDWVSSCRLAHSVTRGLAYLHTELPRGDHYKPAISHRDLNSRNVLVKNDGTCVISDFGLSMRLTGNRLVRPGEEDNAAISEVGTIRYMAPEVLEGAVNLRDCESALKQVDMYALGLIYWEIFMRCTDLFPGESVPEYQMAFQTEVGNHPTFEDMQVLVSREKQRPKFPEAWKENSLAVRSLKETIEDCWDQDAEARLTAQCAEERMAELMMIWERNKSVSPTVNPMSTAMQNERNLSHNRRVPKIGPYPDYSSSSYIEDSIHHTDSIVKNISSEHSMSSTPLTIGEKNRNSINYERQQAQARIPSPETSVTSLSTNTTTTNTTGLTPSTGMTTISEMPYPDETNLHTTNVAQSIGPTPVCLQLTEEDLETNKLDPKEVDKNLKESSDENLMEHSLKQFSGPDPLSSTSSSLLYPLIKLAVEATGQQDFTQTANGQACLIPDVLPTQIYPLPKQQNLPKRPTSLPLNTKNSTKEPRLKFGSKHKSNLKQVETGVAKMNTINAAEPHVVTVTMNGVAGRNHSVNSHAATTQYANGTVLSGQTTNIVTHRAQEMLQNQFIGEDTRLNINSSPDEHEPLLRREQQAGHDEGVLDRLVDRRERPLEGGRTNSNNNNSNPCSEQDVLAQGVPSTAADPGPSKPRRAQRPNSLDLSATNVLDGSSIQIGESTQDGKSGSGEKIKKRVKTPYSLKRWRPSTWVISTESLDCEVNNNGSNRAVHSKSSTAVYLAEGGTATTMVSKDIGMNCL
Sequence of UniProt P54762 (whole entry, looked up): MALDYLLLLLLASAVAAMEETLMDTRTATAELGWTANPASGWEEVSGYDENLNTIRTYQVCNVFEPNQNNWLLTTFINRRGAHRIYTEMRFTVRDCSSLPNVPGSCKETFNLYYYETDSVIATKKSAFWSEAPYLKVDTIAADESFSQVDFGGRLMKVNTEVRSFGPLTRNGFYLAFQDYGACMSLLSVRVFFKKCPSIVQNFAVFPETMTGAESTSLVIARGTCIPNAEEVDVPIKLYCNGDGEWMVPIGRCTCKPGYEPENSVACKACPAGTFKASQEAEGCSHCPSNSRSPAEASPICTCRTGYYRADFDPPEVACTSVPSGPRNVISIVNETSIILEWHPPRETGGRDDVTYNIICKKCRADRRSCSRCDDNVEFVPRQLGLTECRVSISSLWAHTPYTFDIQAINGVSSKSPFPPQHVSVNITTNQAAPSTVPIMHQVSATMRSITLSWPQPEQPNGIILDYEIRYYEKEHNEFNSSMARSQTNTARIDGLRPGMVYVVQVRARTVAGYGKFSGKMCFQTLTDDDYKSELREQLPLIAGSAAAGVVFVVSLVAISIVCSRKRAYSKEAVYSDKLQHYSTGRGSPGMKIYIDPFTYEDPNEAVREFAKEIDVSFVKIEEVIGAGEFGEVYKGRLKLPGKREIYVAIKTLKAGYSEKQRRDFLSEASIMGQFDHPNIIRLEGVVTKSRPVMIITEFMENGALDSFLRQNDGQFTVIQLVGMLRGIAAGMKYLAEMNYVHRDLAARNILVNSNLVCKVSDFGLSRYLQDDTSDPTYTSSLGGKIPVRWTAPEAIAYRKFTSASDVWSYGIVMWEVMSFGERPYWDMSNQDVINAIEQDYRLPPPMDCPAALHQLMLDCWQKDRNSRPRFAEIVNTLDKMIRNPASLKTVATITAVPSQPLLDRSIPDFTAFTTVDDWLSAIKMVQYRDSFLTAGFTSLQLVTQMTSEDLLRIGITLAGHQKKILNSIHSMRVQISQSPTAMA

Series 1
Cell line: Huh-7
Concentration: 10 µM
Time: 24 h
Quantity: viability
CC(=O)OCC[N+](C)(C)C: 99.1%
CCC1(C)OC(=O)N(C)C1=O (stereo not shown): 98%
O=C(C1CCCCC1)N1CC(=O)N2CCc3ccccc3C2C1 (stereo not shown): 101%
CCCc1ncc(C[n+]2ccccc2C)c(N)n1: 96%
O=C(Cn1ccnc1[N+](=O)[O-])NCCO: 79.3%
CN1CCC(=C2c3ccccc3CCc3sccc32)CC1: 94.8%

Series 2
Compound: CN1CCN(C(=O)c2ccc(NC(=O)Nc3ccc(N(C)c4ccnc(Nc5ccc(CS(C)(=O)=O)cc5)n4)cc3)cc2)CC1
Method: competitive binding panel
Concentration: 1 µM
Reference: vehicle
Quantity: remaining binding
EPHA4 (Homo sapiens, UniProt P54764): 85%
BMPR2 (Homo sapiens, UniProt Q13873): 56%
PIK3CA (Homo sapiens, UniProt P42336, M1043I): 100%
CAMK1 (Homo sapiens, UniProt Q14012): 100%
MAP2K3 (Homo sapiens, UniProt P46734); refers to: MEK3: 14%
EPHB1 (Homo sapiens, UniProt P54762): 87%

Series 3
Species: mouse
Sample: microsomes or S9
Concentration: 2 µM
Time: 0.5 h
Quantity: remaining compound
O=S(=O)(c1cn[nH]c1)N1CCCC(c2cnccn2)C1 (stereo not shown): 53.3%
Cc1cc(C)c(C)c(OCCCN2CCOCC2)c1: 0.421%
CCOC(=O)Cn1nc(C)c(NC(=O)Cn2nc(C)c(Br)c2C)c1C: 55.8%
CC(=O)N1CCC2(CC1)OC(=O)C(C)=C2C(=O)N1CCN(C)CC1: 82.9%
COc1ccc(-c2[nH]ncc2C(=O)Nc2n[nH]c3cc(Br)ccc23)cc1: 9.08%
Cc1ccc(S(=O)(=O)Nc2nc3ccc(NC(=O)c4cc(-c5cccs5)n[nH]4)cc3s2)cc1: 0.166%
OCC1(COc2ccccc2-c2nncn2-c2ccccc2)COC1: > 100%
O=c1c(Br)c(Br)cnn1CCn1ncc(Br)c(Br)c1=O: 31.2%
Cc1cc(C)c(-c2n[nH]cc2-c2nc3ccccc3s2)c(O)c1: 1.02%

Further values, each from its own experiment
CCC(=NO)C(C)=Cc1ccc(F)c(C)c1
remaining binding (AP2-associated protein kinase 1 (AAK1, Homo sapiens, UniProt Q2M2I8); KINOMEscan; 1 µM; reference: control): 98%

Some of these lines once more (series 3):
O=c1c(Br)c(Br)cnn1CCn1ncc(Br)c(Br)c1=O: 31.2%
